Literature values as cited in several papers.
Compare with care: the assays were run in different laboratories. ± marks the error that the study gave.

With Cc1nc(C)c(-c2ccc(Oc3ccc(OC(F)(F)F)cc3)cc2)c(O)c1I the IC50 was 130 nM (Plasmodium falciparum; whole cell extended time; 3D7; 72 h).
Nc1cccc2c1C(=O)N(C1CCC(=O)NC1=O)C2=O (stereo not shown): “minimal response or better rate” 30% (relapsed refractory multiple myeloma patients; dose not given, bortezomib and lenalidomide refractory).
CCN(c1cc(-c2ccc(CN3CCOCC3)cc2)cc(C(=O)NCc2c(C)cc(C)[nH]c2=O)c1C)C1CCOCC1: “overall response rate” 11% (treated epithelioid sarcoma patients; dose not given).
COc1ccccc1Oc1cccc(CN2CCC(O)(c3ccccc3C(=O)O)CC2)c1 gave an EC50 of > 10000 nM (human CCR8 Y113A mutant (TM3); IP accumulation, agonist).
For CCOC(=O)c1c(-c2ccccc2)nc2c(sc3ccccc32)c1O, the IC50 was 370 nM (Plasmodium falciparum; whole cell extended time; 3D7; 72 h).
CCNS(=O)(=O)c1ccc(OC)cc1C1(O)CCN(Cc2cccc(Oc3ccccc3OC)c2)CC1 has an EC50 of 4 nM (human CCR8 K193A mutant (TM5); IP accumulation, agonist).
Cc1c(C#N)cccc1[C@@H](C)Nc1nnc(C)c2cnc(N3CCOCC3)cc12 has an IC50 of 107 ± 33.7 nM (OCI-AML-5; ERK phosphorylation, In-Cell Western, item: phospho-ERK).
For COc1cccc2c(NN=Cc3cccc(F)c3)ccnc12, the IC50 was 930 nM (Plasmodium falciparum; whole cell extended time; 3D7; 72 h).
Nc1cc(C(F)(F)F)c(-c2nc(N3CCOCC3)nc(N3CCOCC3)n2)cn1 has a GI50 of 102 nM (A204).
For CCCCCCc1c(C)nc2cc(OC)ccc2c1O, the IC50 was 120 nM (Plasmodium falciparum; whole cell extended time; 3D7; 72 h).
For C[C@H]1COCCN1c1nc(-c2cnc(N)cc2C(F)F)nc(N2CCOCC2)n1, the GI50 was 713 nM (SW480).
With O=C(Nc1nc2ccccc2[nH]1)c1ccccc1 the response was 57% (HSP90α; 5.9 µM, PubChem AID 1846).
CC1(C)S[C@@H]2[C@H](NC(=O)[C@H](N)c3ccccc3)C(=O)N2[C@H]1C(=O)O has an MIC of ≤ 4 µg/mL (Escherichia coli; clinical isolate RKI-No_602/16).
With COc1ccccc1Oc1cccc(CN2CCC(NC(=O)C3CC(=O)Nc4ccccc43)CC2)c1 (stereo not shown) the EC50 was 93 nM (human CCR8 L168D mutant (TM4); IP accumulation, agonist).
With CNC(C)C1CCC(N)C(OC2C(N)CC(N)C(OC3OCC(C)(O)C(NC)C3O)C2O)O1 (stereo not shown) the MIC was > 8 µg/mL (Pseudomonas aeruginosa; clinical isolate RKI-No_21/12).
For Cc1cc(=O)c(-c2ccc(Oc3cccc(Cl)c3)cc2)c(C)[nH]1, the IC50 was 600 nM (Plasmodium falciparum; whole cell extended time; 3D7; 72 h).
For COc1ccccc1Oc1cccc(CN2CCC(NC(=O)C(CCN3CCCC3)c3ccccc3)CC2)c1 (stereo not shown), the EC50 was 42 nM (human CCR8 G206W mutant (TM5); IP accumulation, agonist).
COc1ccc2c(NN=Cc3ccc(Cl)cc3)ccnc2c1 has an IC50 of 870 nM (Plasmodium falciparum; whole cell extended time; 3D7; 72 h).
With COc1ccccc1Oc1cccc(CN2CCC3(CC2)C(=O)NCN3CCc2ccccc2)c1 the EC50 was 0.57 nM (human CCR8 F254A mutant (TM6); IP accumulation, agonist).

For quick reference, copied from above:
COc1ccccc1Oc1cccc(CN2CCC(O)(c3ccccc3C(=O)O)CC2)c1 gave an EC50 of > 10000 nM (human CCR8 Y113A mutant (TM3); IP accumulation, agonist).
